Measurements gathered from unrelated publications.
Numbered parts are unrelated; each lists some results of a single study. Changes are numbered by the printed parent chain.

Sample 1
Target: CCNF, cyclin fold, Cln2 fusion (human)
Method: yeast growth competition, sequencing
Medium: yeast
Notes: strong parent motif
Relative to: not given
Direction: higher = stronger binding
Starting sequence: RB1 docking peptide (human); PKPLKKLRFDIEG; partner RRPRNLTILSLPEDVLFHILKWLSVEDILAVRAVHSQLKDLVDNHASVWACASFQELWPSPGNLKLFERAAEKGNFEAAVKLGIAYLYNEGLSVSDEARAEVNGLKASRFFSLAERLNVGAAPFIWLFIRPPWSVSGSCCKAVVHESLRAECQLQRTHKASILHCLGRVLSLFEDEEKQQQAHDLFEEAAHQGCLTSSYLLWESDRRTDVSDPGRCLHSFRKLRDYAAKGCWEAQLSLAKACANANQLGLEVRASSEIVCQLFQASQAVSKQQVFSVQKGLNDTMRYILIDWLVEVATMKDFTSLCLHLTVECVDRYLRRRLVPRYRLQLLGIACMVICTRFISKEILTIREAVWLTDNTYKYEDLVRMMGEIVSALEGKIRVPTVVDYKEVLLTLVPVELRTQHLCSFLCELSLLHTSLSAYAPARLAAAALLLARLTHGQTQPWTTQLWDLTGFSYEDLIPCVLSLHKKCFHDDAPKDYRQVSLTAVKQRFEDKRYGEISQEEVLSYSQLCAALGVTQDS
Variant | normalised enrichment score
PKPLRKLRLDIEG [K5R F9L] | 0.802
PKPLKKLRFDIPG [E12P] | 1.43
PKPLVKLRFDIEG [K5V] | 0.418
PKPLKKLRFDIEC [G13C] | 2.27
PFPLKKLRFDIEG [K2F] | 2.6
PKPLKKLRFNIEG [D10N] | 1.64
PKPEKKLRFDIEG [L4E] | 0.81
PKPLKKLRFDIDG [E12D] | 1.28

Sample 2
Target: Ras GTPase-activating protein-binding protein 1, full length (G3BP1, Homo sapiens, UniProt Q13283)
UniProt Q13283, sequence (whole entry, looked up): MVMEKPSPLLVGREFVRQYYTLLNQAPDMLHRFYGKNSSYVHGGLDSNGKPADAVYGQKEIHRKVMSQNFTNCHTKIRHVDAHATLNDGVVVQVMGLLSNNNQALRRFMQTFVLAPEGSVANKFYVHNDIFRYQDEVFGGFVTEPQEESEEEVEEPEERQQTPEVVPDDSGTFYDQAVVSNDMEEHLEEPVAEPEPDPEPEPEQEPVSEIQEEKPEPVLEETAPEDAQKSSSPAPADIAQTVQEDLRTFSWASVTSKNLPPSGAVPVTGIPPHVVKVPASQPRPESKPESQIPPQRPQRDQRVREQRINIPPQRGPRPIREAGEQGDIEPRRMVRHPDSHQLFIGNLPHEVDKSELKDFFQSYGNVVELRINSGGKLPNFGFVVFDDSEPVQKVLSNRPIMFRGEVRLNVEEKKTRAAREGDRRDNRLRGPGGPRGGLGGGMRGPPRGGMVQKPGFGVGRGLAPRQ
Method: RNA Bind-n-Seq
Form: RNA
Medium: in vitro
Concentration: 200 nM
Notes: whole 134-nt RNA, ends assumed
With: 150 mM LiCl
Relative to: input library
Direction: higher = stronger binding
All molecules: 7-deaza-guanosine replaces G
Sequence | log2 enrichment
GGGAGUUCUACAGUCCGACGAUCUGGUGGACCCGCAGCAGCUGGGCAUGUUCACGGAGGGCGAGCUGAUGUCGGUGGGUAUGGACACGUUCAUCCACCGCAUCGACUCCACCGUGGAAUUCUCGGGUGUCAAGG | -1.77
GGGAGUUCUACAGUCCGACGAUCCUCAAGUCCUGUGCUACACAUCGUAUGUACCGAAUCGGUUGGGGUUGGGUUGGGAAAGUAUUAUGUUACGCCGUUCGGAUCUGCACUUCCUGGAAUUCUCGGGUGUCAAGG | 0.416
GGGAGUUCUACAGUCCGACGAUCUCCUCAAGUCCUGUGCUACACAUCGUAUGUACCGAAUCGGUGGAGGAAAGGAAAGUAUUAUGUUACGCCGUUCGGAUCUGCACUUCCAGCUGGAAUUCUCGGGUGUCAAGG | -0.0454
GGGAGUUCUACAGUCCGACGAUCACCAUGCAGGUGGACAUCUUUGGGAAGUGGGGCAAGGGGGGGAUAGGGAGGGGGGUAACACUUUGGGAACAGGUGGUCCCAGGUCGUUUCUGGAAUUCUCGGGUGUCAAGG | 0.299

Sample 3
Target: Histone acetyltransferase KAT6A, winged helix 1, GST fusion (KAT6A, Homo sapiens, UniProt Q92794, residues 1-85)
Method: protein binding microarray
Form: double-stranded DNA, one strand shown
Medium: in vitro
Concentration: not given
Notes: 8-mer, flanks averaged, mean of 2 arrays, mostly near background
Relative to: not given
Direction: higher = stronger binding
Target sequence (chain): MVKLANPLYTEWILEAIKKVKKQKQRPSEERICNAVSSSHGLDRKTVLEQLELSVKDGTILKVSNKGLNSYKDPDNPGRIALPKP
Sequence | E-score
TGGGAACA | -0.225
TCTCGGCA | 0.168
CCGGATGC | 0.127
CGTTCTTA | 0.00145
CAGCAAAG | -0.0882

Other studies, line by line
Substance | target | assay | test system | setting | how to read | quantity | result
PhoQ, residues 284 288 289 292 302 303 ASTSDA | PhoP, residues 12 14 15 18 19 LYHSL (Escherichia coli, UniProt P23836) | Sort-seq, item: YFP reporter | E. coli | PhoQ-PhoP variant library, with: 10 µM Mg2+ | relative to: high Mg2+ state, higher = stronger signaling | fold induction | 25.8
